Experimental data gathered from unrelated publications.
Each line is one published result; not all experiments were run side by side. Several values in a cell are separate wells, animals, samples, runs or records.

`C=CC(=O)Nc1cccc(Cn2ncc3cnc(Nc4cnn(CCOC)c4)nc32)c1` — result for “percent of control”: 29% (FLT1 human; binding, KINOMEscan; 100 nM; lower = stronger binding).
For `CNS(=O)(=O)Nc1nccc(Cc2c(C)c3ccc(Oc4ncccc4F)cc3oc2=O)c1F`, the IC50 was > 1 µM (HCC1588; cell viability; 7 days).
Under “log2 fold change”, `Cc1ncsc1-c1ccc(C(C)NC(=O)C2CC(O)CN2C(=O)C(NC(=O)CCCCCCCCCCN2CCCC(Nc3ncc(Cl)c(Nc4ccccc4S(=O)(=O)C(C)C)n3)C2)C(C)(C)C)cc1` (stereo not shown) is recorded as -1.5 (22Rv1; RNA-seq, measured: WNT2B mRNA; concentration not given; reference: DMSO).
`CCN(CC)CC(=O)Nc1cccc(-n2cc(-c3ccc4ccc(-c5cn(-c6cccc(NC(=O)CN(CC)CC)c6)nn5)cc4c3)nn2)c1` gave a fold regulation of 1.71 (RCC4; PCR angiogenesis array, measured: CCL11; 5 x IC50, 2 h, normoxia; reference: untreated).
`COC1CN([C@H]2CC[C@H]([C@@]3(C)Oc4c(Cl)cc(C(=O)NCc5c(SC)cc(C)[nH]c5=O)c(C)c4O3)CC2)C1`: “log2 fold change” 0.659 (RNA-seq, measured: CD276 mouse homolog; mouse, HT-1376 xenograft, whole blood; dose not given; reference: vehicle).
The fold change of `COC(=O)c1cc(NC2=NC(=O)C(=Cc3ccc(N(C)C)cc3)S2)ccc1OC(C)=O` is reported as 0.696 (MCF7; measured: PIAS4 mRNA; 0.81 µM (IC50), 24 h; reference: DMSO).
`Nc1ncc(-c2cc(-c3cnn(CC(F)(F)F)c3)ncc2F)nc1C(=O)NC1CNCC(F)C1` (stereo not shown) gave a remaining binding of 100% (PLK1; KINOMEscan; 1 µM; reference: DMSO control).
`COc1ccccc1-c1ccncc1C(=O)Nc1nnc(OCc2ccc(Cl)cc2)s1` gave a colony count of 6 and 5 and 4.5 (DLD-1 BRCA2-/-; 8 µM, mean of replicates).
`CCCC[C@H](NC(C)=O)C(=O)N[C@@H](CO)C(=O)N[C@H](C(=O)N1CCC[C@H]1C(=O)N[C@]1(C)CCCCCCC=CCCC[C@@](C)(C(=O)N[C@@H](Cc2ccccc2)C(=O)N[C@@H](CCCCN)C(=O)N[C@@H](CCCNC(=N)N)C(=O)N[C@@H](CC(C)C)C(=O)N[C@@H](CCC(N)=O)C(N)=O)NC(=O)[C@H](CCCNC(=N)N)NC(=O)[C@H](CCCC)NC(=O)[C@H](CC(C)C)NC(=O)[C@H](CCCNC(=N)N)NC(=O)[C@H](CCCNC(=N)N)NC(=O)[C@H](CCCNC(=N)N)NC1=O)[C@@H](C)O` has a remaining peptide of 84.9% (proteinase K; LC-MS; 25 µM, 61.5 min, pH 7.4).
`CN1CCCNC(=O)c2cccc(c2)C(=O)NCCCN(C)CCCNc2cccc3c2C(=O)c2cccc(c2C3=O)NCCC1`: “log2 fold change” -1.36 (SAS; RNA-Seq, measured: CAPN10 mRNA; 1 µM, 6 h; reference: untreated cells).
`CC(C)c1ccc(N(C)c2ccc3c(c2)OCC[C@H]3CNc2cnccc2C(=O)O)cc1` has an IC50 of 0.00461 µM (MC116; cell viability, CellTiter-Glo; 7 days).
With `CCOc1cncc(-c2ccc(NC(=O)C3(c4ccnc(NS(=O)(=O)C5CC5)n4)CCOCC3)nc2)n1` the IC50 was 1.89 µM (JHH-6; cell growth, CellTiter-Glo; 72 h).
`Cn1ncc2cc(-c3cncc(Cl)c3N3CCC4(CCNC4=O)CC3)ccc21` — result for “log2 fold change”: 2.23 (LS174T; gene expression, microarray, measured: RAG1 mRNA; concentration not given, 24 h; reference: untreated cells).

Some of these lines once more:
`CCN(CC)CC(=O)Nc1cccc(-n2cc(-c3ccc4ccc(-c5cn(-c6cccc(NC(=O)CN(CC)CC)c6)nn5)cc4c3)nn2)c1` gave a fold regulation of 1.71 (RCC4; PCR angiogenesis array, measured: CCL11; 5 x IC50, 2 h, normoxia; reference: untreated).
